Results gathered from unrelated publications.
Every numbered part comes from another study and shows a few of its results, in no order.

Set 1
Target: Histone acetyltransferase KAT6A, both winged helices, GST fusion (KAT6A, Homo sapiens, UniProt Q92794, residues 1-181)
Method: protein binding microarray
Molecule type: double-stranded DNA, one strand shown
Sample: in vitro
Tested at: not given
Notes: 8-mer, flanks averaged, mean of 2 arrays, mostly near background
Baseline: not given
Reading: higher = stronger binding
Construct (chain): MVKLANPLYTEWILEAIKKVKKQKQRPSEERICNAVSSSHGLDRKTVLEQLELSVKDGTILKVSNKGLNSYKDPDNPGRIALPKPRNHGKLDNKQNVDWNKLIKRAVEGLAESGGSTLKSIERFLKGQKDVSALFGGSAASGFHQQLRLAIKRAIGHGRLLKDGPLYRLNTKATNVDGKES
Strand | E-score
CACGTGCG | 0.198
ACTTAAGA | -0.00106
CATGGAAG | -0.131
CTCTCGAC | -0.0787
GAGCACGA | -0.07
AGGGTTTA | -0.127
CACTATCG | 0.0725
CCACAGAG | -0.273
TGGCGTAA | 0.0266
TAAACCAA | -0.0818
TGAACAAA | 0.05
GTGAATCA | -0.0198
AACACGAT | 0.00886
AAGGGGCA | -0.176
ATACGTAC | 0.0316
CCGGTAGA | 0.241
CGATTGAA | -0.0209
CGGAGGGA | -0.082
AACGGCGA | 0.307
ACGACATC | -0.0625
AACCACCA | -0.266
GATGCTAA | -0.00107
CGGAATGA | 0.151
GCGACACA | 0.0437
CTCATGAC | 0.0179

Set 2
Target: Fragile X messenger ribonucleoprotein 1, C-terminal low-complexity region (Fmr1, Mus musculus, UniProt P35922)
Method: RNA Bind-n-Seq
Molecule type: RNA
Sample: in vitro
Tested at: 200 nM
Notes: whole 134-nt RNA, ends assumed
Together with: 150 mM KCl
Baseline: input library
Reading: higher = stronger binding
Strand | log2 enrichment
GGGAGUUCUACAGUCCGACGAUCCCUCAAGUCCUGUGCUACACAUCGUAUGUACCGAAUCGGGCCGGCCGGCCGGAAAGUAUUAUGUUACGCCGUUCGGAUCUGCACUUCCAGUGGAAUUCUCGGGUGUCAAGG | -0.123
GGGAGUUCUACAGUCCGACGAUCCUCAAGUCCUGUGCUACACAUCGUAUGUACCGAAUCGGAGGAAAAAGGUUUGGAAAGUAUUAUGUUACGCCGUUCGGAUCUGCACUUCCAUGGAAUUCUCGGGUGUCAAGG | -0.518
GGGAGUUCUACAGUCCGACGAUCCUGUGCUACACAUCGUAUGUACCGAAUCGGGGUUUUUGGGGUUUUUUUGGGGUUUUUGGGGAAAGUAUUAUGUUACGCCGUUCGGAUCUGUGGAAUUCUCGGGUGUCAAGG | 0.0412
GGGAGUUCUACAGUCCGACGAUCGUCCUGUGCUACACAUCGUAUGUACCGAAUCGGGGUUUUUGGGGUGGGGAAAAAGGGGAAAGUAUUAUGUUACGCCGUUCGGAUCUGCACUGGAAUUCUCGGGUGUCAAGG | 0.569
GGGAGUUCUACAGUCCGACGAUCUCAAGUCCUGUGCUACACAUCGUAUGUACCGAAUCGGGAAGGGGAAGGAAGGGGAAAGUAUUAUGUUACGCCGUUCGGAUCUGCACUUCCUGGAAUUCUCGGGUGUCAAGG | 0.796
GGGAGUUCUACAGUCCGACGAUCCACAGACAACACGCACCCACACAGACACAGAGGGAACGGGUUGGGAUGGGGACAGGGUGCACAGCAGGGCGGGGUAGGACCCCAGCCCCUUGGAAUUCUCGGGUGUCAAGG | 1.39
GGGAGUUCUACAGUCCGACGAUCCCUGUGCUACACAUCGUAUGUACCGAAUCGGGAAAAAAGGGAAAAAAGGGAAAAAAGGGGAAAGUAUUAUGUUACGCCGUUCGGAUCUGCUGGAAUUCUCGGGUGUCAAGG | -0.523
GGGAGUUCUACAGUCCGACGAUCUGGGAGGUGGAGUUUGUUUAUUUUUUUAGCUCAUUUCCAGGGGUGGGAAUUUUUUUUUAAUAUGUGUCAUGAAUAAAGUUGUUUUUGAAAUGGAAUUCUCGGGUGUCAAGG | 0.166
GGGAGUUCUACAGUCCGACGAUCACCAUGCAGGUGGGCAUCUUUGGGAAGUGGGGCAAGGGGGGGAUAGGGAGGGGGGUAACACUUUGGGAACAGGUUGUCCCAGGUCGUUUCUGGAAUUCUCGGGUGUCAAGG | 0.706
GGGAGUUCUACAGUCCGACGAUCUAACUUUAGAGGAGGAUCUUAUGGAUAUGGCAGUGGACGUGGAUUUGGGGAUGGCUAUAAUGGGUAUGGAGGAGGACCUGGAGGUGGCAAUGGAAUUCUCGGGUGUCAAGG | 0.275

Set 3
Target: Interferon regulatory factor 7, full length, phosphomimetic (IRF7, Homo sapiens, UniProt Q92985, residues 1-503, S101K/S471D/S472D/S475D/S476D/S477D/S483D/S484D/S487D)
Method: protein-binding microarray
Molecule type: double-stranded DNA, one strand shown
Sample: in vitro
Tested at: 250 nM
Notes: 60-bp whole probe
Together with: salmon DNA 0.4 mg/ml
Baseline: random background probes
Reading: higher = stronger binding
Shared flanks, not repeated: GCCTAGCAC … GTCTTGATTCGCTTGACGCTGCTG
Construct (chain): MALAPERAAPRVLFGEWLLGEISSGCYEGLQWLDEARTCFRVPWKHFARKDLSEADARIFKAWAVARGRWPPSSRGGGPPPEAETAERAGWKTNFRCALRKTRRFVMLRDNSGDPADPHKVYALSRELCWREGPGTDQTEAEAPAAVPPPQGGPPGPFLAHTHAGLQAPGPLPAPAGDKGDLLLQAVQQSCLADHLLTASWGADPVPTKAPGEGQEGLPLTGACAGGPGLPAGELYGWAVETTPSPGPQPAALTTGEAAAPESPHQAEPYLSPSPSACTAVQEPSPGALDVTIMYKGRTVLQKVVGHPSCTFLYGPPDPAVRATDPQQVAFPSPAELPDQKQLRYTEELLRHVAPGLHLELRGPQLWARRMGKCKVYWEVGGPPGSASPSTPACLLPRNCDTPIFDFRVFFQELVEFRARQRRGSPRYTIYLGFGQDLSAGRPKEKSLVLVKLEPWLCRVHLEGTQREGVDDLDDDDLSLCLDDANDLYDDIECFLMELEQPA
Strand | log fluorescence [z-score]
GACGGACTGGGACTGTGGACGTGCTAG | -0.661
TTAGATCTCGGGTATCGATTAGTGCTA | 0.795
ATCTCTGTCCGTGCTCAGCTCGTGCTA | -0.249
GGCGATTCCAGTTTCGAGACGTGCTAG | 3.87
AGAAACTTTTTTCTGATTGAGTGCTAG | 1.7
GACGATATCGGCTTTCGAGACGTGCTA | 0.0516
TCATCTTTCTGTTTTCTACTGTGCTAG | 1.77
TTAGGTTTCCTACTACTTTAGTGCTAG | 1.2
AGGAATTTCCCACTTTCACTGTGCTAG | 2.61
TCATTTTCATTTTATGACACTGTGCTA | 3.91
TTAGATTTCGGGACTGAATTAGTGCTA | 0.464
GTAGGTCTCGGACTGGGTTAGTGCTAG | -0.0899
GACGTACTGGACTTTCGGGACGTGCTA | -0.125
TTAGATCTCGGTCTCGGTTAGTGCTAG | 1.6
TCAGTTTCCTTCCTCTTACTGTGCTAG | 3.53
GACGGTTTCGGTTTCTGGACGTGCTAG | 14.1
TCACCGTTTCTTCTAGAACTGTGCTAG | 1.33
TTAGGTTTCGGTCTCGGTGAGTGCTAG | 7.26
GTCGATATCAGTCTCGAGACGTGCTAG | 0.981
GACGGTATCGGGGCTGGGGACGTGCTA | -0.423
TTAGGACTGGGGACTGGGTTAGTGCTA | -0.299
TTAGGTCTCGGACCGGGTTAGTGCTAG | 0.672

Set 4
Target: ATP-dependent RNA helicase DDX3X, helicase core (DDX3X, Homo sapiens, UniProt O00571, residues 132-607)
UniProt O00571, sequence (132-607, looked up): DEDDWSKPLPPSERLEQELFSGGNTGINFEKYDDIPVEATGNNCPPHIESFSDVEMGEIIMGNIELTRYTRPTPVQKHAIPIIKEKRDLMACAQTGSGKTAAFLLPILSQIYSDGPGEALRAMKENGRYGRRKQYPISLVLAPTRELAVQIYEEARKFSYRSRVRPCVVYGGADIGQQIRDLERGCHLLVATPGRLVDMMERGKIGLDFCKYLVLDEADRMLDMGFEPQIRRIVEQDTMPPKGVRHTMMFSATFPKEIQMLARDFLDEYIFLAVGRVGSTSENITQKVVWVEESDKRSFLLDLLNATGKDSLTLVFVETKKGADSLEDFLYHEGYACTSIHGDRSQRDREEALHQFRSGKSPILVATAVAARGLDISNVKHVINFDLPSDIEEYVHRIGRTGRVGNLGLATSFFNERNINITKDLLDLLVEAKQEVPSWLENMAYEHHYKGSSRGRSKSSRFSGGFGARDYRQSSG
Method: RNA Bind-n-Seq
Molecule type: RNA
Sample: in vitro
Tested at: 90 pmol
Notes: 4-mer, random 30-nt RNA, single round
Together with: 3 µM iPr-DMDA-PatA, 2 mM ADP, 2 mM phosphate
Baseline: input library
Reading: higher = stronger binding
Strand | 4-mer enrichment
CAAA | 1.31 fold
UAAU | 1.23 fold
CGCC | 0.862 fold
UACU | 0.96 fold
AAGG | 1.2 fold
UUUA | 1.21 fold
AAUU | 1.31 fold
ACCG | 0.948 fold
UGAU | 1.04 fold
UUCC | 0.946 fold
GUUA | 1.03 fold
GCGG | 0.768 fold
CCAU | 0.986 fold
AGCG | 1.02 fold
CAGC | 0.869 fold
AACA | 1.32 fold
AUCC | 1.11 fold
GGGG | 0.909 fold
CUGG | 0.72 fold
ACGC | 0.872 fold
AUUG | 1.01 fold
GAUU | 1.09 fold
AGGU | 0.987 fold
ACUC | 1.03 fold
AUAG | 1.2 fold

Set 5
Organism: Saccharomyces cerevisiae
Observed: binding
Method: yeast competitive growth sequencing
Molecule type: peptide
Strain: cyclin D1-Cln2 strain
Sample: peptide tiling library
Reading: direction not given
Sequence | enrichment score
NFETPEAETPIRSPFK | 1.97
LRRQLSFSED | 0.182
RKLHFEDEVT | 2.87
ARKRLELGNLGNPQ | -1.16
GFGFLLFICKLTF | -0.941
DWDTVERQEEEAPSWD | 2.65
RRVLCFDS | -1.34
PPKPLKKLRFDIEGSD | -0.587
KVKRRLDLDIDGLQKE | -0.402
GAEELEDLVHFSVSEL | 2.7
RKLDLEGIGR | -0.534
LRRKLFLDGNGSIS | -1.76
PPTFLSTGEIHAFLSS | 0.476
TTTTSPRTPPPLTVQD | 2.41

Repeated from above (set 4):
Strand | 4-mer enrichment
CGCC | 0.862 fold
UACU | 0.96 fold
AAGG | 1.2 fold
UUUA | 1.21 fold
AAUU | 1.31 fold
ACCG | 0.948 fold
UGAU | 1.04 fold
